{"data": "Experimental data pooled from the literature", "note": "Each numbered part is a random draw from the data of one study; scales do not carry over between parts. Values joined by “and” are separate records of one study, mostly repeats; a detail may differ.", "UniProt P21860, sequence (whole entry, looked up)": "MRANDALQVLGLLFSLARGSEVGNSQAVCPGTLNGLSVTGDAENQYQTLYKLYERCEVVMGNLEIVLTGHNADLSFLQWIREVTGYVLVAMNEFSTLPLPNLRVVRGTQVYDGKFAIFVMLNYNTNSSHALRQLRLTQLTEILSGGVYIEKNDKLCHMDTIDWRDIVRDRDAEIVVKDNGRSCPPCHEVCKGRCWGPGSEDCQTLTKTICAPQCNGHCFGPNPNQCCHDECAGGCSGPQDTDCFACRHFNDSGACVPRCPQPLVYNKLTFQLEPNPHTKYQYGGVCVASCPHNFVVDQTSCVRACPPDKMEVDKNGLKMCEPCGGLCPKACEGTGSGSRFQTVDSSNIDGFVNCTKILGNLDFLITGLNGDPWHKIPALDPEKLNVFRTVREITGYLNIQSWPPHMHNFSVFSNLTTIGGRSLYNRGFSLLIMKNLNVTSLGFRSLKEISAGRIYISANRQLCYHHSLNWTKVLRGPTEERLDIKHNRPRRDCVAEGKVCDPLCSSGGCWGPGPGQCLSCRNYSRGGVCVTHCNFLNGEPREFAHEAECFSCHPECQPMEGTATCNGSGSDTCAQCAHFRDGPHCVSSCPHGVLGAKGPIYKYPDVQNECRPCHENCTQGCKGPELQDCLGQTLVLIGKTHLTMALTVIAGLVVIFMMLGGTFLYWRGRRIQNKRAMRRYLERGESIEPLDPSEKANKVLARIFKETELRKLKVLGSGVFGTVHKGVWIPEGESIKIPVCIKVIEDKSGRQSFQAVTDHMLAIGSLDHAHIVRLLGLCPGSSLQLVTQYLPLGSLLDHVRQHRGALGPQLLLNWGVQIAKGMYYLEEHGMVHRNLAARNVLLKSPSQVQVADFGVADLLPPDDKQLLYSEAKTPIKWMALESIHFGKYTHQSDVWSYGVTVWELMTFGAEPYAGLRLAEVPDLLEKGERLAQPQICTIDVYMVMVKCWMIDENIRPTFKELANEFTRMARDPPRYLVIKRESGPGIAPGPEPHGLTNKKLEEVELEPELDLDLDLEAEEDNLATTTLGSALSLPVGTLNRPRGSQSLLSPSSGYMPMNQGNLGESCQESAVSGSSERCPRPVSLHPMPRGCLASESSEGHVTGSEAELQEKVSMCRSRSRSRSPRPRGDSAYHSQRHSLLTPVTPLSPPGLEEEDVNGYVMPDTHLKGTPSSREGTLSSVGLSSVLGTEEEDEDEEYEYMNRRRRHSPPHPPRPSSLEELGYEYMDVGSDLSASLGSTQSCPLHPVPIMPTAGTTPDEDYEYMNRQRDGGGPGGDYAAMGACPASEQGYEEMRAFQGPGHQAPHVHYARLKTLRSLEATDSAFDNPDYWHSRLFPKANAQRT", "UniProt P08922, sequence (whole entry, looked up)": "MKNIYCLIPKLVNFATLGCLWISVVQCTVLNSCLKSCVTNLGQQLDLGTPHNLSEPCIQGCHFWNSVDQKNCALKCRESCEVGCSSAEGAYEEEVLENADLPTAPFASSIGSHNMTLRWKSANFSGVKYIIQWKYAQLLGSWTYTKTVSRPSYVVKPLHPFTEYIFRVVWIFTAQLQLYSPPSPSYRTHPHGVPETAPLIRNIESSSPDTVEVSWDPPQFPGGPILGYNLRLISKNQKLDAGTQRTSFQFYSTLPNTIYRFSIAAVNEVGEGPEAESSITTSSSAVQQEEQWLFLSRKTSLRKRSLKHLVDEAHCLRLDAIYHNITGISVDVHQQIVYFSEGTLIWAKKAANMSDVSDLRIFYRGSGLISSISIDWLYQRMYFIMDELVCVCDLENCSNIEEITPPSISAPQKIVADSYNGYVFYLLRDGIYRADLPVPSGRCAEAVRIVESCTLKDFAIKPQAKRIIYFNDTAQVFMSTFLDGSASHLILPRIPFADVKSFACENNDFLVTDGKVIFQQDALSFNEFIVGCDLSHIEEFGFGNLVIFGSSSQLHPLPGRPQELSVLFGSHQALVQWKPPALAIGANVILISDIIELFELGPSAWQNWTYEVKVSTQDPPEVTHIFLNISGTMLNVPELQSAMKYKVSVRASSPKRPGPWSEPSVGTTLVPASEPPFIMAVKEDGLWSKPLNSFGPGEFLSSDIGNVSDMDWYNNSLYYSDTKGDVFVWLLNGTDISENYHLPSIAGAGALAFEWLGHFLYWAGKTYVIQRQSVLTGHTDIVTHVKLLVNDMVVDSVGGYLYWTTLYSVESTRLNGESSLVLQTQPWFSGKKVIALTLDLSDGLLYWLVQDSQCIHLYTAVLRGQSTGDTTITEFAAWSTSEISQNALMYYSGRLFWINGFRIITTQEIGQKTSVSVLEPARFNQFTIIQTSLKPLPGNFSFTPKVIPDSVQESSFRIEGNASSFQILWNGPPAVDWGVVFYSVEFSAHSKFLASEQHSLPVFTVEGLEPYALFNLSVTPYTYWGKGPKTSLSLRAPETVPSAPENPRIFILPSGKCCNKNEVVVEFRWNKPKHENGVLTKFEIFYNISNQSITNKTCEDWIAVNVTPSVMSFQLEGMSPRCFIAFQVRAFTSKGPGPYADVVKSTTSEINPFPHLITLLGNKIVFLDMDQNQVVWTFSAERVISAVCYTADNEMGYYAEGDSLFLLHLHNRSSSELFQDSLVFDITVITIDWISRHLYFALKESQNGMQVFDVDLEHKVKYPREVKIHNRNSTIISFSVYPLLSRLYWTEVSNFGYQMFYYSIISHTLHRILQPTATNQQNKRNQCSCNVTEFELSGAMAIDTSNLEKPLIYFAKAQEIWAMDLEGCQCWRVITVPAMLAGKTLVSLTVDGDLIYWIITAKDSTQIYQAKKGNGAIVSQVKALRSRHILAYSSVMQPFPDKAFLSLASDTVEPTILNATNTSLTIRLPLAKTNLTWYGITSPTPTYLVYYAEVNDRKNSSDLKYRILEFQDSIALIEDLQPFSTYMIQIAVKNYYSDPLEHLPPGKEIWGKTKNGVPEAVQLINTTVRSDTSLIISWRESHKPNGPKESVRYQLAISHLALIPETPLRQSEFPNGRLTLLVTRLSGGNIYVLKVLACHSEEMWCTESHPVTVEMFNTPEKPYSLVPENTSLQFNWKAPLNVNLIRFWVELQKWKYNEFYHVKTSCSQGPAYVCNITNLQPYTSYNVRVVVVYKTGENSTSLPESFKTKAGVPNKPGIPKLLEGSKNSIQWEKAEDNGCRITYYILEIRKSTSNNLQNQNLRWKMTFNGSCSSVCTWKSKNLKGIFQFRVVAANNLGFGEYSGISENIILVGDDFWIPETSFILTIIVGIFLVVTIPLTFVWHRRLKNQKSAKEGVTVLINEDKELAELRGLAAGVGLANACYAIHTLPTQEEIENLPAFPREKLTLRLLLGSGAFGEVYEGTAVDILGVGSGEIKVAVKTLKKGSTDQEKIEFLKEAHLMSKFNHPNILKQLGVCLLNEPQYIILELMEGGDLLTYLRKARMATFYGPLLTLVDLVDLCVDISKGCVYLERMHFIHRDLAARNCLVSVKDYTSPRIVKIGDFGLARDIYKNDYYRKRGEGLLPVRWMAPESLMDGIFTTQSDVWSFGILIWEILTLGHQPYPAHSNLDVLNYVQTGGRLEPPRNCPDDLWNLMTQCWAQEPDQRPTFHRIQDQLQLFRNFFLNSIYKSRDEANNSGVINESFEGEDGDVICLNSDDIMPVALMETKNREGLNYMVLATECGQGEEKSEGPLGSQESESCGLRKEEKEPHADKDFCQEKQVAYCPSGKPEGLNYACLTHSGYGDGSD", "UniProt Q8TDC3, sequence (whole entry, looked up)": "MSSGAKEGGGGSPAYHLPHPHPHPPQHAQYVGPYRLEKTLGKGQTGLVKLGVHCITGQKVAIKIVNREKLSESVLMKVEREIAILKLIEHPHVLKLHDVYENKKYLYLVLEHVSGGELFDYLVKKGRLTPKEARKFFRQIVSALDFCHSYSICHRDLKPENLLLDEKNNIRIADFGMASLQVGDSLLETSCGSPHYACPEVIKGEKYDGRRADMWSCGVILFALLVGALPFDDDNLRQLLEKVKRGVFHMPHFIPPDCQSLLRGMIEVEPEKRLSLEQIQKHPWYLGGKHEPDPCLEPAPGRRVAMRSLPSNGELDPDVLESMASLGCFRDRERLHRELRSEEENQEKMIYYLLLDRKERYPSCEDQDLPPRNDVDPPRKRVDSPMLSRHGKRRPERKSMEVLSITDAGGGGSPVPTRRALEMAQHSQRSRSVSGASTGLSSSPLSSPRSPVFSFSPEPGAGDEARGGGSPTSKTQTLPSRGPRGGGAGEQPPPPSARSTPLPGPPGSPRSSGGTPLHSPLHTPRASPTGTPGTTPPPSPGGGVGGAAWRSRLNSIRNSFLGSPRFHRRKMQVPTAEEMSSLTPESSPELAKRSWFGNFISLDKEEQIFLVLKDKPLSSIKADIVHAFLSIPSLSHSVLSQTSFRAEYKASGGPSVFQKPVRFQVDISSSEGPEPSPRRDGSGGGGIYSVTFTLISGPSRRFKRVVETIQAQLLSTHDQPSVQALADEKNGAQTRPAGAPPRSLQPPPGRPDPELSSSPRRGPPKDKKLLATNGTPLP", "UniProt Q9H3Y6, sequence (whole entry, looked up)": "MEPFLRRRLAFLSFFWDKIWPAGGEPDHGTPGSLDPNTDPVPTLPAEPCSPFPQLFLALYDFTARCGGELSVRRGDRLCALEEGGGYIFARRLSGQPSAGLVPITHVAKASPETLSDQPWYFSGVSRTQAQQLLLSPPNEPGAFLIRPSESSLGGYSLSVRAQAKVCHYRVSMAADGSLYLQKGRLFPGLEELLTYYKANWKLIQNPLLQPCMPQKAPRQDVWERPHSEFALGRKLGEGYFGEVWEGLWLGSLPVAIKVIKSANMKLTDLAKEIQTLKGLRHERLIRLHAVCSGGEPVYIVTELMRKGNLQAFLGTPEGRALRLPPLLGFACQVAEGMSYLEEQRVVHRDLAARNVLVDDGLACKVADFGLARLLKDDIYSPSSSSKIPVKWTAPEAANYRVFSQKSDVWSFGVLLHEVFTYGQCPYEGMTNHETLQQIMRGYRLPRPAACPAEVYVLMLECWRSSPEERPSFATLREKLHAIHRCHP"}
{"data": "Series 1", "species": "human", "sample": "microsomes or S9", "concentration": "2 µM", "time": "0.5 h"}
{"Compound": "CCC(C)Nc1[nH]c2cc(C)cc(C)c2c(=O)c1C(C)=O (stereo not shown)", "remaining compound": "1.24%"}
{"Compound": "Cc1c(CNCC(c2cccs2)N(C)C)cc(C#N)n1C (stereo not shown)", "remaining compound": "62.9%"}
{"Compound": "Cn1cnnc1C1CCCN1c1ncnc2c1c(Br)nn2C (stereo not shown)", "remaining compound": "> 100%"}
{"Compound": "Cc1ccc(C(C)(C)C)c(OCCOCCN2CC(C)OC(C)C2)c1 (stereo not shown)", "remaining compound": "0.0987%"}
{"Compound": "CCOC(=O)N1CCN(C(=O)c2cc(-c3ccccc3)nn2C)CC1", "remaining compound": "31%"}
{"Compound": "Cc1cc(C)n(-c2cccc(-c3cnc4n3CCOC4)c2)n1", "remaining compound": "46.2%"}
{"Compound": "CC(c1ncc(-c2ccc(O)cc2)s1)C(O)(Cn1cncn1)c1ccc(F)cc1F (stereo not shown)", "remaining compound": "72.8%"}
{"Compound": "COc1ccc(C2C(C(=O)N3CCN(c4cc(Cl)ccc4C)CC3)CCC(=O)N2c2cc(OC)c(OC)c(OC)c2)cc1 (stereo not shown)", "remaining compound": "32.8%"}
{"Compound": "COC(=O)c1ccc(CCC(C)NCC(O)c2cccc(Cl)c2)o1 (stereo not shown)", "remaining compound": "4.99%"}
{"Compound": "COc1cccc2c1OC1(CCN(Cc3ccccc3)CC1)N1N=C(c3ccc(C)o3)CC21 (stereo not shown)", "remaining compound": "21%"}
{"data": "Series 2", "Structure (SMILES)": "CC(C)c1nn(-c2c(Cl)cccc2Cl)c2nc(Cc3ccc(OCCO)cc3)[nH]c(=O)c12", "read-out": "enzyme activity", "action": "inhibitor", "concentration": "0.5 µM", "relative to": "control"}
{"target": "Proto-oncogene tyrosine-protein kinase ROS (ROS1, Homo sapiens, UniProt P08922)", "remaining activity": "105%"}
{"target": "Mitogen-activated protein kinase 10 (MAPK10, Homo sapiens, UniProt P53779)", "remaining activity": "109%"}
{"target": "Cyclin-dependent kinase 2, with cyclin A (CDK2, Homo sapiens, UniProt P24941)", "remaining activity": "1.96%"}
{"target": "Proto-oncogene tyrosine-protein kinase receptor Ret (RET, Homo sapiens, UniProt P07949)", "remaining activity": "97.5%"}
{"target": "Mitogen-activated protein kinase kinase kinase 8 (MAP3K8, Homo sapiens, UniProt P41279)", "remaining activity": "96.4%"}
{"target": "NT-3 growth factor receptor (NTRK3, Homo sapiens, UniProt Q16288)", "remaining activity": "90.5%"}
{"target": "Calcium/calmodulin-dependent protein kinase type 1G (CAMK1G, Homo sapiens, UniProt Q96NX5)", "remaining activity": "100%"}
{"target": "Rho-associated protein kinase 2 (ROCK2, Homo sapiens, UniProt O75116)", "remaining activity": "92.5%"}
{"target": "Myotonin-protein kinase (DMPK, Homo sapiens, UniProt Q09013)", "remaining activity": "99.3%"}
{"target": "G protein-coupled receptor kinase 5 (GRK5, Homo sapiens, UniProt P34947)", "remaining activity": "108%"}
{"target": "Calcium/calmodulin-dependent protein kinase type 1D (CAMK1D, Homo sapiens, UniProt Q8IU85)", "remaining activity": "102%"}
{"target": "Protein-tyrosine kinase 2-beta (PTK2B, Homo sapiens, UniProt Q14289)", "remaining activity": "96.1%"}
{"target": "Serine/threonine-protein kinase Nek9 (NEK9, Homo sapiens, UniProt Q8TD19)", "remaining activity": "97.3%"}
{"target": "Mitogen-activated protein kinase kinase kinase 2 (MAP3K2, Homo sapiens, UniProt Q9Y2U5)", "remaining activity": "94.7%"}
{"target": "Serine/threonine-protein kinase BRSK1 (BRSK1, Homo sapiens, UniProt Q8TDC3)", "remaining activity": "91.3%"}
{"target": "Dual specificity tyrosine-phosphorylation-regulated kinase 4 (DYRK4, Homo sapiens, UniProt Q9NR20)", "remaining activity": "96.7%"}
{"target": "Cyclin-dependent kinase 7 (CDK7, Homo sapiens, UniProt P50613)", "remaining activity": "60.3%"}
{"target": "Serine/threonine-protein kinase N2 (PKN2, Homo sapiens, UniProt Q16513)", "remaining activity": "97.5%"}
{"target": "Serine/threonine-protein kinase D1 (PRKD1, Homo sapiens, UniProt Q15139)", "remaining activity": "103%"}
{"target": "Casein kinase II subunit alpha' (CSNK2A2, Homo sapiens, UniProt P19784)", "remaining activity": "92.2%"}
{"target": "Aurora kinase A (AURKA, Homo sapiens, UniProt O14965)", "remaining activity": "107%"}
{"target": "Epidermal growth factor receptor (EGFR, Homo sapiens, UniProt P00533)", "remaining activity": "95.2%"}
{"target": "Homeodomain-interacting protein kinase 3 (HIPK3, Homo sapiens, UniProt Q9H422)", "remaining activity": "99%"}
{"target": "STE20-like serine/threonine-protein kinase (SLK, Homo sapiens, UniProt Q9H2G2)", "remaining activity": "86.9%"}
{"data": "Series 3", "Structure (SMILES)": "CC(C)CC(=O)N1CCc2nc(-c3ccc(Br)cc3)nc(N(C)Cc3ccccc3)c2C1", "technique": "competition with immobilised ligand", "concentration": "0.1 µM"}
{"target": "Cyclin-dependent kinase-like 1 (CDKL1, Homo sapiens, UniProt Q00532)", "test": "cell-free assay", "remaining binding [%]": 63}
{"target": "MAP kinase-interacting serine/threonine-protein kinase 1 (MKNK1, Homo sapiens, UniProt Q9BUB5)", "test": "cell-free assay", "remaining binding [%]": 69}
{"target": "Tyrosine-protein kinase ABL1, phosphorylated (ABL1, Homo sapiens, UniProt P00519, E255K)", "test": "binding", "remaining binding [%]": 100}
{"target": "Tyrosine-protein kinase Srms (SRMS, Homo sapiens, UniProt Q9H3Y6)", "test": "cell-free assay", "remaining binding [%]": 100}
{"target": "Receptor tyrosine-protein kinase erbB-3 (ERBB3, Homo sapiens, UniProt P21860)", "test": "cell-free assay", "remaining binding [%]": 73}
{"target": "Dual specificity mitogen-activated protein kinase kinase 7 (MAP2K7, Homo sapiens, UniProt O14733)", "test": "cell-free assay", "remaining binding [%]": 79}
{"target": "Calcium/calmodulin-dependent protein kinase type II subunit delta (CAMK2D, Homo sapiens, UniProt Q13557)", "test": "cell-free assay", "remaining binding [%]": 100}
{"target": "Receptor tyrosine-protein kinase erbB-2 (ERBB2, Homo sapiens, UniProt P04626)", "test": "cell-free assay", "remaining binding [%]": 82}
{"data": "Series 4", "Structure (SMILES)": "CN1CCC[C@H]1COc1nc2c(c(N3CCN(S(C)(=O)=O)[C@@H](CC#N)C3)n1)CCN(c1cccc3cccc(Cl)c13)C2", "read-out": "binding", "action": "competitor", "technique": "NanoBRET", "cells": "HEK293", "KRAS G12D": "GTPase KRas (KRAS, Homo sapiens, UniProt P01116, G12D)", "KRAS Q61R": "GTPase KRas (KRAS, Homo sapiens, UniProt P01116, Q61R)", "KRAS Q61H": "GTPase KRas (KRAS, Homo sapiens, UniProt P01116, Q61H)"}
{"target": "KRAS G12D", "setting": "33.3 µM", "normalized BRET": "30.6% and 43.6% and 39.2%"}
{"target": "KRAS Q61R", "setting": "45.7 nM", "normalized BRET": "96.7% and 90.1% and 77.7%"}
{"target": "KRAS G12D", "setting": "412 nM", "normalized BRET": "96.2% and 87.8% and 88.6%"}
{"target": "KRAS Q61R", "setting": "412 nM", "normalized BRET": "76.3% and 81.4% and 96.9%"}
{"target": "KRAS Q61H", "setting": "11.1 µM", "normalized BRET": "12.9% and 14.6% and 16.8%"}
{"target": "KRAS Q61R", "setting": "5.08 nM", "normalized BRET": "85.6% and 94.1% and 99.5%"}
{"target": "KRAS Q61H", "setting": "1.24 µM", "normalized BRET": "47.7% and 43.7% and 38.7%"}
{"note": "Some of these lines once more (series 2):"}
{"target": "Calcium/calmodulin-dependent protein kinase type 1G (CAMK1G, Homo sapiens, UniProt Q96NX5)", "remaining activity": "100%"}
{"target": "Mitogen-activated protein kinase kinase kinase 8 (MAP3K8, Homo sapiens, UniProt P41279)", "remaining activity": "96.4%"}
{"target": "Serine/threonine-protein kinase Nek9 (NEK9, Homo sapiens, UniProt Q8TD19)", "remaining activity": "97.3%"}
{"target": "Casein kinase II subunit alpha' (CSNK2A2, Homo sapiens, UniProt P19784)", "remaining activity": "92.2%"}
{"target": "Cyclin-dependent kinase 7 (CDK7, Homo sapiens, UniProt P50613)", "remaining activity": "60.3%"}
